# Measurements of several laboratories.
# Protocols differ between the studies behind these lines. ± marks the error that the study gave.
# EPHX2: Bifunctional epoxide hydrolase 2 (EPHX2, Homo sapiens, UniProt P34913)
# CHRM2: Muscarinic acetylcholine receptor M2 (CHRM2, Homo sapiens, UniProt P08172)
# KIT: Mast/stem cell growth factor receptor Kit (KIT, Homo sapiens, UniProt P10721)
# Nr3c1: Glucocorticoid receptor (Nr3c1, Rattus norvegicus, UniProt P06536)
# PGR: Progesterone receptor (PGR, Homo sapiens, UniProt P06401)
SMILES,target,test,system,setting,scale,measurement,value
NC(=O)C1CCNC(=O)C(Cc2ccc([N+](=O)[O-])cc2)NC(=O)C(Cc2ccco2)NC(=O)C(CC2CC2)NC(=O)C=CC(=O)N1 (stereo not shown),"Dual specificity mitogen-activated protein kinase kinase 6 (MAP2K6, Homo sapiens, UniProt P52564)",DNA-templated library selection,,one selection round,,enrichment factor,2.2
CC12CC3CC(C)(C1)CC(NC(=O)Nc1ccc(C(=O)N4CCC(NC(=O)C5CC5)CC4)cc1)(C3)C2,EPHX2,,,,,lipophilic ligand efficiency,6.33
CCCCOc1ccc(C(=O)OCCN2CC=CCC2)cc1,CHRM2,recovery of [3H]NMS binding after washing,membranes,100 µM,,dissociation half-time,0.2 ± 0.1 h
CC1(C)CCN(Cc2ccc(C(=O)NC[C@]3(O)CCCN(c4cc(NCc5ccccc5)ncn4)C3)c(O)c2)CC1,KIT,"kinase activity, radiometric",,"10 µM, with: 10 µM ATP",,remaining activity,95%
CONC(=O)C1CCCN(C(=O)c2ccc(NC(=O)NC34CC5CC(C)(CC(C)(C5)C3)C4)cc2)C1 (stereo not shown),EPHX2,,,,,lipophilic ligand efficiency,6.89
"CC(=O)C12NC(C)(C)CC1(C)C(=O)C1=C2c2c(c3c4n2C(C)(C)CC2=C4C4(CC(C)(C)NC(C)(C4)C2=O)CC3(C)C)C(=O)C(C)(C)N1 (single isomer, unassigned; (+))","Delta-type opioid receptor (OPRD1, Homo sapiens, UniProt P41143)","agonist, cAMP",CHO,concentration not given,,agonist activity,inactive
CCCCSc1nc2c([nH]1)c(=S)n(C)c(=S)n2C,Nr3c1,"reporter gene, antagonist, MMTV-luciferase",T47D/A1-2,"10 µM, 24 h, with: 5 nM dexamethasone",relative to: maximal activity,remaining activity,91%
CCCCCCCC(=O)Nc1ccc(OC)nc1C,"Fatty-acid amide hydrolase 1 (FAAH, Homo sapiens, UniProt O00519)","enzyme activity, substrate",,"50 µM, pH 8, 37 °C",,specific activity,66 pmol/min/µg
O=C(NC[C@@H](Cc1ccccc1)N1CCC(O)(C(F)(F)F)CC1)C1(c2ccc(Cl)cc2)CCCC1,"Transient receptor potential cation channel subfamily A member 1 (TRPA1, Homo sapiens, UniProt O75762, I946M)","calcium influx, agonist",,"concentration not given, I946M mutant",,activation,inhibited
CN(C)c1ccc(NC(=S)N(C)c2ccccc2)cc1,"Alpha-synuclein (SNCA, Homo sapiens, UniProt P37840)","fibril formation, ThT fluorescence kinetics",,"100 µM, α-syn 2 µM, plateau phase",relative to: DMSO vehicle,maximum ThT fluorescence,17 ± 3%
C=CC(=O)N1C[C@H](C)N(c2nc(OC[C@@]34CCCN3C[C@H](F)C4)nc3c(F)c(-c4ccc(F)c5sc(N)c(C#N)c45)c(C(F)(F)F)cc23)C[C@H]1C,"GTPase KRas (KRAS, Homo sapiens, UniProt P01116, G12C)",Western blot,MIA PaCa-2 and SW1463,concentration not given,,duration of MAPK pathway suppression,≥ 24 h
CC(C)(C)CCN1C[C@@H]2[C@@H](CNC(=O)c3cc(Cl)cc(Cl)c3)[C@@H]2C1.Cl,"Voltage-dependent L-type calcium channel subunit alpha-1C (CACNA1C, Oryctolagus cuniculus, UniProt P15381)",whole-cell patch clamp,"HEK-293T, transfected",5 µM,,calcium current inhibition,no inhibition
N[C@@H](CCC(=O)N[C@@H](CS[Se]Cc1ccc(-c2cccc(C(O)c3ccc(Cl)c(Cl)c3)c2)cc1)C(=O)NCC(=O)O)C(=O)O (stereo partly shown),"Receptor-type tyrosine-protein phosphatase C (PTPRC, Homo sapiens, UniProt P08575)",enzyme activity,,"with: pNPP, GSH 1 mM",relative to: IC50 PTPRC over STEP,selectivity ratio,> 100
CCc1cc(O)cc2c(/C=N/NC(=N)NCCc3ccc(Cl)cc3)c[nH]c12,"Relaxin-3 receptor 2 (RXFP4, Homo sapiens, UniProt Q8TDU9, L118A)","cAMP response, agonist",,"concentration not given, L118A mutant",relative to: wild type,potency change by mutation,increased
Cc1nc(/N=N/c2cc3c(S(=O)(=O)O)cc([N+](=O)[O-])cc3cc2S(=O)(=O)O)c(COP(=O)(O)O)c(C=O)c1O,"Coagulation factor XI (F11, Homo sapiens, UniProt P03951)","enzyme activity, inhibitor",,"pH 7.4, 37 °C, with: S-2366 substrate",,maximal inhibition,111 ± 15.6%
CC(C)CC(NC(=O)C(NC(=O)NC(C(=O)O)C(C)C)C1CCNC(=N)N1)C(=O)NCCCNC(C(=O)O)C(OC1OC(CN)C(O)C1O)C1OC(n2ccc(=O)[nH]c2=O)C(O)C1O (stereo not shown),"Phospho-N-acetylmuramoyl-pentapeptide-transferase (mraY, Aquifex aeolicus, UniProt O66465, N255A)",ITC,,N255A mutant,,ΔH,-7.6 ± 0.3 kcal/mol
CC(=O)N[C@@H](Cc1c[nH]c2ccccc12)C(=O)N[C@@H](Cc1c[nH]c2ccccc12)C(=O)N[C@@H](Cc1c[nH]c2ccccc12)C(=O)N[C@@H](Cc1c[nH]c2ccccc12)C(=O)N[C@@H](Cc1c[nH]c2ccccc12)C(=O)N[C@@H](Cc1c[nH]c2ccccc12)C(=O)NCCCC[C@@H]1NC(=O)[C@H](CCCNC(=N)N)NC(=O)[C@H](CCCNC(=N)N)NC(=O)[C@H](CCCNC(=N)N)NC(=O)[C@H](CCCNC(=N)N)NC(=O)[C@H](CCCNC(=N)N)NC(=O)[C@H](CCCNC(=N)N)NC1=O,KIT,"enzyme activity, inhibitor",,5 µM,,remaining activity,83.1%
CCCCC(C)Sc1nc2c([nH]1)c(=S)n(C)c(=O)n2C (stereo not shown),PGR,"reporter gene, antagonist, MMTV-luciferase",T47D/A1-2,"10 µM, 24 h, with: 5 nM progesterone",relative to: maximal activity,remaining activity,58%
C=CCn1c(=O)c2ccccc2n2c(SCC(=O)Nc3ccc(NC(C)=O)cc3)nnc12,CHRM2,"ERK1/2 phosphorylation, antagonist",human cells,"1 µM, with: [3H]NMS, iperoxo at EC80",,pA2,10.5 ± 0.15
CCCCCCCCCCCSc1nc2c([nH]1)c(=O)n(C)c(=S)n2C,Nr3c1,"reporter gene, antagonist, MMTV-luciferase",T47D/A1-2,"10 µM, 24 h, with: 5 nM dexamethasone",relative to: maximal activity,remaining activity,95%
CSc1cc(C)[nH]c(=O)c1CN1CCc2c(Cl)c3c(c(C)c2C1=O)OC(C)(C1CCC(N(C)C)CC1)O3 (stereo not shown),"Histone-lysine N-methyltransferase EZH2 (EZH2, Homo sapiens, UniProt Q15910)",,,activated enzyme,,kon,1e+06 M⁻¹ s⁻¹
c1ccc(/N=c2\oc3ccccc3cc2-c2ccccc2)cc1,"Prostaglandin G/H synthase 1 (PTGS1, Ovis aries, UniProt P05979)","enzyme activity, inhibitor",,"from IC50, T 300 K",,binding free energy,-11 kcal/mol
CC12CC3CC(C)(C1)CC(NC(=O)Nc1ccc(C(=O)N4CCC(N)CC4)cc1)(C3)C2,EPHX2,,,,,lipophilic ligand efficiency,6.33
CNc1ccccc1C(=O)O[C@H]1C[C@H](n2cnc3c(N)ncnc32)O[C@@H]1COP(=O)(O)OP(=O)(O)O,"Unconventional myosin-Va (Gallus gallus, UniProt Q02440, D297C/G292C/I296C/S293C/V295G)","stopped-flow FRET, linear fit intercept",,"4 °C, with: MgCl2 10 mM",,dissociation rate constant,1 ± 0.21 s⁻¹
C[C@H](N)C(=O)N[C@@H](CCCNC(=N)N)C(=O)N[C@H](C(=O)N[C@@H](CCCC[N+](C)(C)C)C(=O)N[C@@H](CCC(N)=O)C(=O)N[C@H](C(=O)N[C@@H](C)C(=O)N[C@@H](CCCNC(=N)N)C(=O)N[C@@H](CCCCN)C(=O)N[C@@H](CO)C(=O)O)[C@@H](C)O)[C@@H](C)O,"Autoimmune regulator, PHD1 domain (AIRE, Homo sapiens, UniProt O43918, D297A)",tryptophan fluorescence titration,,concentration not given,,binding,no binding
COc1ccccc1N1CCN(c2nc3c(c(=O)[nH]2)CCCC3)CC1,"Poly [ADP-ribose] polymerase 1 (PARP1, Homo sapiens, UniProt P09874)","inhibitor, ELISA",,up to 20 µM,,enzyme activity,no inhibition
CCOC(=O)CCC(NC(=O)C(NC(=O)c1c(C)nn(-c2ccc(F)cc2)c1C)C(C)C)C(=O)OCC (stereo not shown),"Nucleotide-binding oligomerization domain-containing protein 2 (NOD2, Homo sapiens, UniProt Q9HC29)","NF-κB reporter gene, agonist",HEK-Blue cells expressing NOD2,"10 µM, 16 h",,activity,active
CCCCOP(=O)(Cc1ccccc1)O[C@@H]1O[C@H](CO)[C@@H](O)[C@H](O)[C@H]1F (mixture of isomers),"Lysosomal acid glucosylceramidase (GBA1, Homo sapiens, UniProt P04062)","enzyme activity, irreversible inhibitor",,"pH 5.5, 37 °C, with: 2,4-dinitrophenyl beta-D-glucopyranoside",,inactivation rate constant,5.44 min⁻¹
CC(=O)OC1(C(C)=O)CCC2C3C=C(CO)C4=CC(=O)CCC4(C)C3CCC21C (stereo not shown),PGR,"agonist, measured: GREB1",T47D,"100 nM, 8 h",relative to: ethanol vehicle,mRNA fold change,2 ± 0.3 fold change
CC(C)Cn1c(SCC(=O)N2CCc3ccccc3C2)nc2cc(Cl)ccc2c1=O,"Corticotropin-releasing factor receptor 1 (CRHR1, Homo sapiens, UniProt P34998)","calcium signal, antagonist",,with: CRF at EC80,,IC50,inactive
CN1CC(O)C2=CC(=O)C(=O)C=C21 (stereo not shown),"Alpha-synuclein, oligomers (SNCA, Homo sapiens, UniProt P37840)","oligomer-vesicle binding, FIDA",,"5 µM, with: 150 nM oligomers, 50 µM DOPG liposomes",relative to: untreated,reduction in bound oligomers,15 to 20%
CCCCCCCCCCCCCCCOC(=O)/C=C/c1ccc(O)c(O)c1,"Protein kinase C alpha type (PRKCA, Homo sapiens, UniProt P17252)","membrane translocation, immunoblotting",MDA-MB-231,"IC50, 30 min",relative to: untreated,cytosolic PKC alpha,8.2 ± 0.9%
CCCC[C@H](C)/C=C(C)/C=C/C(=O)O,"Transient receptor potential cation channel subfamily A member 1 (TRPA1, Homo sapiens, UniProt O75762, K868A)","calcium influx, fluorescence calcium",,K868A mutant,relative to: wild type,potency shift,29 fold
O=C([O-])CN(CCN(CC(=O)[O-])Cc1cc(CCC(=O)NCCCCCC(=O)NCCCC[C@H](NC(=O)N[C@@H](CCC(=O)O)C(=O)O)C(=O)O)ccc1O)Cc1cc(CCC(=O)O)ccc1[O-].[68Ga+3],"Glutamate carboxypeptidase 2 (FOLH1, Homo sapiens, UniProt Q04609)",PET/CT,"prostate cancer patients, all lesion types",mean,,SUVmax,> 10
CC[C@H](C)[C@H](N)C(=O)N[C@@H](CC(N)=O)C(=O)N1CCC[C@H]1C(=O)N[C@H](C(=O)NCC(=O)N[C@@H](CS)C(=O)N[C@@H](C)C(=O)N[C@@H](CCCNC(=N)N)C(=O)N[C@@H](CO)C(=O)N[C@@H](CCC(=O)O)C(=O)N1CCC[C@H]1C(=O)N[C@@H](CCCCN)C(=O)N[C@H](C(=O)N[C@@H](CC(C)C)C(N)=O)[C@@H](C)CC)[C@@H](C)O,"WD repeat-containing protein 5 (WDR5, Homo sapiens, UniProt P61964)","binding, SPR",,,,kon,370000 M⁻¹ s⁻¹
CC(C)CN(CC(C)C)C(=O)/C=C/C=C/c1ccc2c(c1)OCO2,"Gabrb1/Gabra1 (Rattus norvegicus, UniProt P15431+P62813)","GABA current potentiation, positive modulator, two-electrode voltage clamp",Xenopus oocytes expressing α1β1,with: GABA EC3-7,,Hill coefficient,1.5 ± 0.2
N=C(N)NCCC[C@H](NC(=O)[C@H](CC(=O)O)NC(=O)[C@@H]1CSCCCC(=O)NCC(=O)N[C@@H](Cc2c[nH]cn2)C(=O)N[C@H](Cc2ccccc2)C(=O)N[C@@H](CCCNC(=N)N)C(=O)N[C@@H](Cc2c[nH]c3ccccc23)C(=O)N1)C(=O)N[C@@H](Cc1ccccc1)C(=O)NCC(N)=O,"Melanocortin receptor 5 (MC5R, Homo sapiens, UniProt P33032)","cAMP accumulation, agonist",HEK293 expressing MC5R,10 µM,relative to: MT-II,activation,91%
N#CCCN1CCN(C(=S)c2ccc(-c3ccc(F)cc3)o2)CC1,"Atrial natriuretic peptide receptor 2 (NPR2, Homo sapiens, UniProt P20594)","HTRF, measured: cGMP",HEK293 overexpressing GC-B,with: subthreshold CNP,relative to: saturating CNP,Emax,86%
CCCCCCCCCCCC(=O)Nc1ccc(OC)nc1C,"Cocaine esterase (CES2, Homo sapiens, UniProt O00748)",substrate,,"50 µM, pH 8, 37 °C, enzyme purity 4%",,specific activity,29 pmol/min/µg
CC1=C(/C=C/C(C)=C/C=C/C(C)=C/C=O)C(C)(C)CCC1,"Cyclic nucleotide-gated channel alpha-1 (CNGA1, Bos taurus, UniProt Q00194)","ion current, inhibitor, inside-out patch clamp",,"400 nM, with: cGMP 2 mM",,slow time constant of inhibition,1670 s

# Some of these lines once more:
SMILES,target,test,system,setting,scale,measurement,value
C[C@H](N)C(=O)N[C@@H](CCCNC(=N)N)C(=O)N[C@H](C(=O)N[C@@H](CCCC[N+](C)(C)C)C(=O)N[C@@H](CCC(N)=O)C(=O)N[C@H](C(=O)N[C@@H](C)C(=O)N[C@@H](CCCNC(=N)N)C(=O)N[C@@H](CCCCN)C(=O)N[C@@H](CO)C(=O)O)[C@@H](C)O)[C@@H](C)O,"Autoimmune regulator, PHD1 domain (AIRE, Homo sapiens, UniProt O43918, D297A)",tryptophan fluorescence titration,,concentration not given,,binding,no binding
C=CC(=O)N1C[C@H](C)N(c2nc(OC[C@@]34CCCN3C[C@H](F)C4)nc3c(F)c(-c4ccc(F)c5sc(N)c(C#N)c45)c(C(F)(F)F)cc23)C[C@H]1C,"GTPase KRas (KRAS, Homo sapiens, UniProt P01116, G12C)",Western blot,MIA PaCa-2 and SW1463,concentration not given,,duration of MAPK pathway suppression,≥ 24 h
